{"data": "Measured values from different studies", "note": "A part holds a random share of what one study measured. Substitutions count along the parent as printed."}
{"data": "Set 1", "target": "CCNE2, cyclin fold, Cln2 fusion (human)", "method": "yeast growth competition, sequencing", "matrix": "yeast", "setting": "strong parent motif", "reference": "not given", "direction": "higher = stronger binding", "starting sequence": "E2F1 docking peptide (human); PPVKRRLDLETDH; partner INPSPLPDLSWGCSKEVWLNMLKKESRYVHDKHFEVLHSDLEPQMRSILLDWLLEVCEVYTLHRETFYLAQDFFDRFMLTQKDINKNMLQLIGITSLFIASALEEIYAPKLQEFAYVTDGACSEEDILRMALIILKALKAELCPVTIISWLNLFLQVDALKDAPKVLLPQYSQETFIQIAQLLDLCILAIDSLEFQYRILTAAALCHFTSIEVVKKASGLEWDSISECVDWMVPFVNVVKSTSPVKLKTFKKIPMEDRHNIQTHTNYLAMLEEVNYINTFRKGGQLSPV"}
{"Substitution": "E10V", "normalised enrichment score": 1.33}
{"Substitution": "P1R", "normalised enrichment score": 0.942}
{"Substitution": "R6N", "normalised enrichment score": 0.677}
{"Substitution": "E10P", "normalised enrichment score": 0.688}
{"Substitution": "D8G", "normalised enrichment score": 1.97}
{"Substitution": "T11L", "normalised enrichment score": 2.21}
{"Substitution": "R6P", "normalised enrichment score": -0.536}
{"data": "Set 2", "target": "RING finger protein unkempt homolog, zinc fingers 1-6, GST-SBP tag (UNK, Homo sapiens, UniProt Q9C0B0, residues 30-357)", "method": "RNA Bind-n-Seq", "molecule type": "RNA", "matrix": "in vitro", "tested at": "not given", "setting": "RNA with constant flanks, human and mouse sites, ends assumed", "reference": "input RNA pool", "direction": "higher = stronger binding", "constant ends, left off below": "GGGAGUUCUACAGUCCGACGAUC … CAACAGAGGAUUGAGCAUCA", "sequence of UniProt Q9C0B0 (30-357, looked up)": "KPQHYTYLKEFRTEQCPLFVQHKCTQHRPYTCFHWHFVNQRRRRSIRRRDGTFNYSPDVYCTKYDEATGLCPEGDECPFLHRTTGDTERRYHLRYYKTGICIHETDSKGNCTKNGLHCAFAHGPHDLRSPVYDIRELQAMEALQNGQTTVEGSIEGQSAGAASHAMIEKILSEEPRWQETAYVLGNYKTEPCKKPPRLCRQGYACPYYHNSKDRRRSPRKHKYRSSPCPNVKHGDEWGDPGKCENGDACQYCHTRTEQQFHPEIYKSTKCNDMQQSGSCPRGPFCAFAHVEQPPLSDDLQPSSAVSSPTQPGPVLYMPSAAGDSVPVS"}
{"Sequence": "AUUAAAAUAAGGAUCCAUGAUGACCUUAAAAGAACUGUAGAUCUUUGUCAAAAGGCUGAAGCAACAGGAGUUUCAUGGAUUACAGUCCAUGGAAGAACUGCUGAAGAAAGACAUCAGCCA", "bound/input enrichment": "0.142 ratio"}
{"Sequence": "UAAACUGGUGCUUUAUGUACAUGAGAUGUACUAAAAUAAGUAAUAUAGAAUUUUUCUUGCUAGGUAAAUCCAGUAAGCCAAUAAUUUUAAAGAUUCUUUAUCUGCAUCAUUGCUGUUUGU", "bound/input enrichment": "0.297 ratio"}
{"Sequence": "UACUGCUGGUCCUGUACCAGAAACAUUUUCUUUUAUUGUUACUUGCUUUUUAAACUUUGUUUAGCCACUUAAAAUCUGCUUAUGGCACAAUUUGCCUCAAAAUCCAUUCCAAGUUGUAUA", "bound/input enrichment": "3 ratio"}
{"Sequence": "GAGAACAGCAAUAUACAGGUCCUUUCUGACAGAUCUGCCACUGAAGUAGACAACAAUUUCAGCAAACCACCUCCAUUUUUCCCUCCAGGGGCUCCUCCUACUCACCUUCCUCCUCCUCCA", "bound/input enrichment": "0.273 ratio"}
{"Sequence": "CCUCGAGAACGGGACUAUUUAAAAACAGUCUUGCACAGGAUUUAUGGCAAGUUUCUCGGGCUUAGAGCAUUUAUCCGAAAACAAAUUAACAAUAUUUUUCUAAGGUUUGUUUAUGAAACA", "bound/input enrichment": "1.4 ratio"}
{"Sequence": "UGUCCAGGUUGCUACAAGAUCACCACGGUUUUCAGCCAUGCUCAGACAGUGGUUCUUUGUGUAGGUUGUUCAACAGUGUUGUGCCAGCCUACAGGAGGAAAGGCCAGACUCACAGAAGGG", "bound/input enrichment": "0.11 ratio"}
{"data": "Set 3", "target": "Interferon regulatory factor 3, full length, phosphomimetic (IRF3, Homo sapiens, UniProt Q14653, residues 1-427, S386D/S396D/S398D/S402D/T404D/S405D)", "method": "protein-binding microarray", "molecule type": "double-stranded DNA, one strand shown", "matrix": "in vitro", "tested at": "2540 nM top", "setting": "60-bp whole probe", "together with": "salmon DNA 0.4 mg/ml", "reference": "random background probes", "direction": "higher = stronger binding", "constant ends, left off below": "GCCTAGCAC … GTGCTAGGTCTTGATTCGCTTGACGCTGCTG", "Target sequence (chain)": "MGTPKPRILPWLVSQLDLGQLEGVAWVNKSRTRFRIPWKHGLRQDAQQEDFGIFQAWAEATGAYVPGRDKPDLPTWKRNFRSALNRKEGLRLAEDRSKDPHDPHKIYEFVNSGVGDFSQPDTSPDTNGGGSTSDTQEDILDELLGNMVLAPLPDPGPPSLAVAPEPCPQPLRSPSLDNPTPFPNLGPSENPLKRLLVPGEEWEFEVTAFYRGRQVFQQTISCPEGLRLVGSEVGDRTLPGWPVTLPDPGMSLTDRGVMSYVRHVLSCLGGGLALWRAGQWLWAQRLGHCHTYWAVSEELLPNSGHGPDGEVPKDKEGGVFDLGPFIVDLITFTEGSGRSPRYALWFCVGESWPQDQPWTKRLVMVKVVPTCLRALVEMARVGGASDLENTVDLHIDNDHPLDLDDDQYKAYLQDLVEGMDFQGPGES"}
{"Sequence": "TTAGCTATCCTTCTCCTTTA", "fitted relative affinity": "4.25 z-score"}
{"Sequence": "TTAGGTCTCGGACTGGTTTA", "fitted relative affinity": "-0.219 z-score"}
{"Sequence": "TTAGGACTGGGTCTCGGATA", "fitted relative affinity": "-0.636 z-score"}
{"Sequence": "ATGGTCCTCTCTCTATTCAG", "fitted relative affinity": "0.86 z-score"}
{"Sequence": "GACGGTTTCCTACAGCTGAC", "fitted relative affinity": "3.19 z-score"}
{"Sequence": "GAGGGACTGCTACTGCTGAC", "fitted relative affinity": "-0.98 z-score"}
{"Sequence": "CACTCTCTACATGTGTTTAC", "fitted relative affinity": "1.71 z-score"}
{"data": "Single results of other studies"}
{"Substance": "PhoQ, residues 284 288 289 292 302 303 ALVSVA", "target": "PhoP, residues 12 14 15 18 19 LWHCS (Escherichia coli, UniProt P23836)", "test": "Sort-seq, refers to: YFP reporter", "system": "E. coli", "conditions": "PhoQ-PhoP variant library, together with: 10 µM Mg2+", "how to read": "reference: high Mg2+ state, higher = stronger signaling", "measurement": "fold induction", "value": 4.33}
{"note": "Excerpt of the above (single results of other studies):"}
{"Substance": "PhoQ, residues 284 288 289 292 302 303 ALVSVA", "target": "PhoP, residues 12 14 15 18 19 LWHCS (Escherichia coli, UniProt P23836)", "test": "Sort-seq, refers to: YFP reporter", "system": "E. coli", "conditions": "PhoQ-PhoP variant library, together with: 10 µM Mg2+", "how to read": "reference: high Mg2+ state, higher = stronger signaling", "measurement": "fold induction", "value": 4.33}
